{"data": "Results of several laboratories", "note": "Numbered parts are unrelated; each lists some results of a single study. Several values in a cell are separate wells, animals, samples, runs or records."}
{"data": "Study 1", "Compound": "Cc1ncsc1-c1ccc(C(CO)NC(=O)C2CC(O)CN2C(=O)C(C(C)C)n2cc(-c3ccc(COc4c(-c5c(C)c(F)cc6[nH]ncc56)c(C5CC5)cc5c(N6CC7CC6CN7)nc(OC6CCOCC6)nc45)cc3)nn2)cc1 (centres unmarked)", "observed": "cell growth or viability", "technique": "ATP luminescence", "time": "6 days"}
{"cell line": "SW-403", "setting": "0.1 µM", "viability": "59.3% and 52.4% and 61.9% and 69%"}
{"cell line": "SK-CO-1", "setting": "100 pM", "viability": "76.9% and 111% and 115% and 119%"}
{"cell line": "GP2d", "setting": "0.1 µM", "viability": "28.3% and 39.6% and 33.6% and 29.7%"}
{"cell line": "NCI-H358", "setting": "3 nM", "viability": "99% and 107% and 95.2% and 88.4%"}
{"cell line": "HT-29", "setting": "30 nM", "viability": "87.4% and 90.3% and 93.1% and 118%"}
{"cell line": "HCT-116", "setting": "10 µM", "viability": "9.72% and 8.01% and 9.84% and 6.08%"}
{"cell line": "HT-29", "setting": "10 µM", "viability": "73.3% and 76.1% and 77.8% and 76.4%"}
{"cell line": "PSN1", "setting": "10 µM", "viability": "37.8% and 37.9% and 42.4% and 38.4%"}
{"data": "Study 2", "organism": "Leishmania donovani", "cell line": "THP-1", "strain": "DD8 promastigote", "baseline": "THP-1 cytotoxicity over promastigote activity"}
{"SMILES": "Fc1cccc(Nc2c3c(nc4ccccc24)CCC3)c1", "selectivity ratio": 1.34}
{"SMILES": "Clc1ccc2nc3c(c(Nc4ccc5c(c4)OCCO5)c2c1)CCC3", "selectivity ratio": 28.6}
{"SMILES": "Fc1ccc(Nc2c3c(nc4ccccc24)CCC3)cc1", "selectivity ratio": 3.03}
{"SMILES": "Cc1ccc(Nc2c3c(nc4ccccc24)CCC3)cc1", "selectivity ratio": 3.64}
{"SMILES": "CCOC(=O)c1ccc(Nc2c3c(nc4ccccc24)CCC3)cc1", "selectivity ratio": 2.91}
{"SMILES": "COC(=O)c1ccc(Nc2c3c(nc4ccccc24)CCC3)cc1", "selectivity ratio": 3.69}
{"data": "Study 3", "SMILES": "Cn1cc(-c2cccc(CN3CCC4(CC3)COc3c4ccc4c3CN([C@H]3CCC(=O)NC3=O)C4=O)c2)cn1"}
{"test system": "rat", "setting": "oral, 3 mg/kg", "Tmax": "4 h and 2 h"}
{"test system": "cynomolgus monkey", "setting": "intravenous, 1 mg/kg", "Tmax": "0.08 h"}
{"test system": "rat, plasma", "setting": "intravenous, about 1 mg/kg", "Tmax": "0.08 h"}
{"test system": "cynomolgus monkey, plasma", "setting": "oral, 3.02 mg/kg", "Tmax": "2 h"}
{"test system": "rat, plasma", "setting": "oral, 2.98 mg/kg, group mean", "Tmax": "2.67 h"}
{"test system": "cynomolgus monkey, plasma", "setting": "intravenous, 1 mg/kg", "Tmax": "0.08 h"}
{"test system": "cynomolgus monkey", "setting": "oral, 3 mg/kg", "Tmax": "2 h"}
{"test system": "rat, plasma", "setting": "intravenous, 1.02 mg/kg, group mean", "Tmax": "0.08 h"}
{"data": "Mixed results"}
{"SMILES": "C=CCN1C(=O)C(O)(C(=O)O)Oc2cc(F)ccc21 (centres unmarked)", "organism": "Arabidopsis thaliana", "test": "root length", "test system": "Col-0, seedlings", "setting": "50 µg/mL", "how to read": "baseline: water control", "endpoint": "inhibition", "result": "28.5%"}
{"note": "Repeated from above (study 2):"}
{"SMILES": "Cc1ccc(Nc2c3c(nc4ccccc24)CCC3)cc1", "selectivity ratio": 3.64}
{"SMILES": "Fc1ccc(Nc2c3c(nc4ccccc24)CCC3)cc1", "selectivity ratio": 3.03}
{"SMILES": "Fc1cccc(Nc2c3c(nc4ccccc24)CCC3)c1", "selectivity ratio": 1.34}
{"SMILES": "Clc1ccc2nc3c(c(Nc4ccc5c(c4)OCCO5)c2c1)CCC3", "selectivity ratio": 28.6}
